Published values of several laboratories.
Compare with care: the assays were run in different laboratories. Numbers after ± are the reported error.
Target: Cytochrome P450 3A4 (CYP3A4, Homo sapiens, UniProt P08684)
Chain of UniProt P08684 (whole entry, looked up): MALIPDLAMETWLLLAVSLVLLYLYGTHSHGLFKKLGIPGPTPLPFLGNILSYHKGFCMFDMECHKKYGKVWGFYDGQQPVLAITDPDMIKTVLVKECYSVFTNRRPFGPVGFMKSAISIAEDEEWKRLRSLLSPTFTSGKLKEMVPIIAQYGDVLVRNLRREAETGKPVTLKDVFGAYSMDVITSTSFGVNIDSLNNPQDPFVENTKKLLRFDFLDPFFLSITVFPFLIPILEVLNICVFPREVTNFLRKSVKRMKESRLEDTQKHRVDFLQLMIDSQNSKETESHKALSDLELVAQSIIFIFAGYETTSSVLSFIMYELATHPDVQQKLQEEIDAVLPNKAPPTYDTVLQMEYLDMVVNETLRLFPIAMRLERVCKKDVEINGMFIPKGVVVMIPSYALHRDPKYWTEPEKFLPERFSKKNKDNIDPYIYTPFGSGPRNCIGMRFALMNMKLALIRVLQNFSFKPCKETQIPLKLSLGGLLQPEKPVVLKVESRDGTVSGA

O=C(O)/C=C/c1ccccc1  IC50 (enzyme activity, inhibitor): > 337 µM
CCOc1cc(-c2nncn2C)ccc1Nc1ncc2cc(C)nc(NCC(C)(C)C)c2n1  IC50 (inhibitor): 10 to 50 µM
O=C(NCCN1CCCC1)c1cc(-c2ccc(CN3CCOCC3)cc2)nc2ccc(F)cc12  IC50 (enzyme activity, inhibitor; human liver microsomes; NADPH pre-incubation, together with: nifedipine): > 100 µM
CC(O)C(C)n1ncn(-c2ccc(N3CCN(c4ccc(OCC5COC(Cn6cncn6)(c6ccc(Cl)cc6Cl)O5)cc4)CC3)cc2)c1=O (centres unmarked)  IC50 (inhibitor; human liver microsomes; together with: testosterone): 0.002 µM
Cc1cccnc1C(=O)Nc1ccc(N2C(=O)c3cccc(Cl)c3C2=O)c(Cl)c1  IC50 (enzyme activity, inhibitor; 3A4): > 30 µM
COc1cc2c(c(OC)c1OC)-c1c(cc3c(c1OC)OCO3)C[C@H](C)[C@](C)(O)[C@H]2OC(=O)c1ccccc1  IC50 (testosterone 6β-hydroxylation, inhibitor, recombinant enzyme; 15 min, pH 7.4, together with: testosterone 50 µM): 0.13 ± 0.04 µM
Cc1cc(OC2COC2)cc(C(=O)Nc2ccc(F)cn2)n1  IC50 (inhibitor): > 30 µM
C=C(F)C(=O)N1CCN(c2nc(OC[C@@H]3CCCN3C)nc3c2CCN(c2cccc4cccc(Cl)c24)C3)C[C@@H]1CC#N  Ki (enzyme activity, time-dependent inhibitor; human liver microsomes): 1.85 µM
OCc1ccc(-c2nn(Cc3ccccc3)c3ccccc23)o1  IC50 (enzyme activity, time-dependent inhibitor; pooled human liver microsomes; 30 min, preincubation with NADH, together with: testosterone): 6.8 µM
COc1cc2c(c(OC)c1OC)-c1c(cc3c(c1OC)OCO3)[C@H](OC(=O)c1ccccc1)[C@@](C)(O)[C@@H](C)C2  IC50 (testosterone 6β-hydroxylation, inhibitor, recombinant enzyme; 15 min, pH 7.4, together with: testosterone 50 µM): 0.096 ± 0.02 µM
N#C[C@H](C[C@@H]1CCCNC1=O)NC(=O)[C@H](CC1CC1)NC(=O)c1cc2cccc(Cl)c2[nH]1  IC50 (enzyme activity, time-dependent inhibitor; human liver microsomes; 30 min NADPH preincubation, together with: midazolam 1'-hydroxylation): 6.56 µM

Some of these lines once more:
O=C(NCCN1CCCC1)c1cc(-c2ccc(CN3CCOCC3)cc2)nc2ccc(F)cc12  IC50 (enzyme activity, inhibitor; human liver microsomes; NADPH pre-incubation, together with: nifedipine): > 100 µM
